Measured values gathered from unrelated publications.
Every numbered part comes from another study and shows a few of its results, in no order.
Chain of UniProt P53778 (whole entry, looked up): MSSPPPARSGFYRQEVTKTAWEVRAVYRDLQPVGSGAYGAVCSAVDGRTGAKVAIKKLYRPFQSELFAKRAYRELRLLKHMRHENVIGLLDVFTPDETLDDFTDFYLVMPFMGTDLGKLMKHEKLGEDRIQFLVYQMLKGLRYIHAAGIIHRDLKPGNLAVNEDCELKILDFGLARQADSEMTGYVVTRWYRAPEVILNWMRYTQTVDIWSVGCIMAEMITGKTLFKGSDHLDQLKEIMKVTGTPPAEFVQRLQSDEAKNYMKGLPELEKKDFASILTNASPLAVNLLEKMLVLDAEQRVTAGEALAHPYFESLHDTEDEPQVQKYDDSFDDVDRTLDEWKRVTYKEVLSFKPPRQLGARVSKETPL
Chain of UniProt Q99759 (whole entry, looked up): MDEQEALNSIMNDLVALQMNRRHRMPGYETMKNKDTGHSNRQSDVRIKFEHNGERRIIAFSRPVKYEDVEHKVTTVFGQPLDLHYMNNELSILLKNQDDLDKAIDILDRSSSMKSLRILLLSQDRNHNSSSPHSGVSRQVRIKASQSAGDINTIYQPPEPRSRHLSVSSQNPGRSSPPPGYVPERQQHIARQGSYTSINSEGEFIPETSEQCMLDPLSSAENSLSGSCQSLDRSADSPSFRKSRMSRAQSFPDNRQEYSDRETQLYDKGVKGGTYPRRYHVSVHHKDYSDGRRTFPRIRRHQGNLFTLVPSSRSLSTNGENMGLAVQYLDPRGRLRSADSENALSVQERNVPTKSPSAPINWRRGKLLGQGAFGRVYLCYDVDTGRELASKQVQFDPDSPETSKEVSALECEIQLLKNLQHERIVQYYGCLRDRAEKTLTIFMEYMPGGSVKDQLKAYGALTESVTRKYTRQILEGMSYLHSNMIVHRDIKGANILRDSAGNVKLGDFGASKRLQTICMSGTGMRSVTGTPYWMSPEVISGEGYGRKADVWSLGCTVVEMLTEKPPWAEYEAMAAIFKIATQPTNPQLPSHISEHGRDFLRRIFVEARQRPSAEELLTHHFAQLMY

Series 1 — method: protein-binding microarray; form: hairpin DNA; sample: in vitro; concentration: not given; relative to: not given; reading: higher = stronger binding
Target: Microphthalmia-associated transcription factor, full length (MITF, Homo sapiens, UniProt O75030-10, residues 1-413)
Setting: whole hairpin DNA, median over replicate spots
Oligonucleotide	median fluorescence
CACTCGGCACGTGATTTTGGTCCTCCAAAATCACGTGCCGAGTGACACTC (5mC at 5)	26200 a.u.
GAGGCCTAGCACGTTCTGCCTCCTGGCAGAACGTGCTAGGCCTCACACTC	6030 a.u.
GAGGCCTACCACGTGCTGCCTCCTGGCAGCACGTGGTAGGCCTCACACTC (5mC at 9)	23600 a.u.
CACTTAGCACCGGATTTTGGTCCTCCAAAATCCGGTGCTAAGTGACACTC (5mC at 33)	5140 a.u.
CACTTAGCACCGGATTTTGGTCCTCCAAAATCCGGTGCTAAGTGACACTC (5mC at 11 33)	4300 a.u.
CACTTAGCACGCGATTTTGGTCCTCCAAAATCGCGTGCTAAGTGACACTC (5mC at 32)	6170 a.u.
GAGGCCTTGCACGTGCTGCCTCCTGGCAGCACGTGCAAGGCCTCACACTC	23000 a.u.
GAGGCCTAGCACCGGCTGCCTCCTGGCAGCCGGTGCTAGGCCTCACACTC (5mC at 13 31)	5380 a.u.

Series 2 — method: RNA Bind-n-Seq; form: RNA; sample: in vitro; concentration: 20 nM; setting: 6-mer, flanks averaged, single round; together with: 150 mM LiCl; relative to: input library; reading: higher = stronger binding
Target: TAR DNA-binding protein 43, full length, His tag (TARDBP, Homo sapiens, UniProt Q13148, residues 1-414)
Oligonucleotide	6-mer enrichment (R)
CGAUAA	0.821
GCCUGU	0.99
UGUUUG	1.79
GUCAAU	0.926
AACGAA	0.809
CUGGUG	1.12
AAAUGC	0.896
AUCUGC	0.851

Further values, each from its own experiment
Structure (SMILES)	target	assay	setting	how to read	quantity	result
Cc1ccc(NC(=O)c2ccc(CN3CCN(C)CC3)cc2)cc1Nc1nccc(-c2cccnc2)n1	MAP3K3 (Homo sapiens, UniProt Q99759)	enzyme activity, inhibitor	0.5 µM	relative to: control	remaining activity	106%
C[C@@]1(Cc2ccc(C#N)cc2)C(=O)N(c2cc(Cl)cc(Cl)c2)c2ncc(C(=O)NC3(c4nc(C5CCC5)no4)CC3)n21	MAPK12 (Homo sapiens, UniProt P53778)	cell-free assay, competition with immobilised ligand	1 µM	–	remaining binding	100%

For quick reference, copied from above (series 1):
Oligonucleotide	median fluorescence
CACTTAGCACCGGATTTTGGTCCTCCAAAATCCGGTGCTAAGTGACACTC (5mC at 11 33)	4300 a.u.
CACTTAGCACGCGATTTTGGTCCTCCAAAATCGCGTGCTAAGTGACACTC (5mC at 32)	6170 a.u.
GAGGCCTTGCACGTGCTGCCTCCTGGCAGCACGTGCAAGGCCTCACACTC	23000 a.u.
